Results collected from several papers.
Each line is one published result; not all experiments were run side by side.
Target: Rho-associated protein kinase 2 (ROCK2, Homo sapiens, UniProt O75116)

SMILES | test | conditions | how to read | endpoint | result
Nc1ncc(-c2cc(-c3cnn(CC(F)(F)F)c3)ncc2F)nc1C(=O)NC1CNCC(F)C1 (centres unmarked) | enzyme activity | 1 µM | reference: DMSO control | remaining activity | 98.8%
COc1ccc(C(=O)/C=C/c2ccccc2-c2c[nH]c3ccc(C#N)cc23)c(O)c1 | enzyme activity, inhibitor | 20 µM |  | inhibition | 6%
CN1CCN(Cc2ccc(NC(=O)c3cccc(C#Cc4cnc(N)c5ncccc45)c3)cc2C(F)(F)F)CC1 | cell-free assay, competition with immobilised ligand | 50 nM |  | remaining binding | 69%
COc1ccc(NC(=O)Nc2ccc3c(c2)C(=O)N(C(C)CO)CC(C)C(CN(C)Cc2ccc4c(c2)OCO4)O3)cc1 (centres unmarked) | binding, competition with immobilised ligand | 10 µM |  | remaining binding | 100%
CC(=O)N1c2ccc(-c3ccc(CNC(=O)c4cn5cc(-c6cnc(N)nc6)nc(N6CCOCC6)c5n4)cc3)cc2CC[C@@H]1C | KINOMEscan | 10 µM |  | remaining binding | 70%
Nc1ncc2c(n1)-c1c([nH]c3ccc(C4=CCOCC4)cc13)CCC2 | binding, competition with immobilised ligand | 1 µM |  | remaining binding | 91%
CCn1cc(C(=O)O)c(=O)c2c(N)c(F)c(NC3CCCCC3)cc21 | kinase activity | 0.1 µM, added: ATP at Km |  | inhibition | 1.4%
COc1c(Cl)cccc1Nc1c(-c2ccncc2C#C[C@@]2(C)CCCN2C(=O)/C=C/CN(C)C)[nH]c2c1C(=O)NCC2 | binding, competition with immobilised ligand | 3 µM |  | remaining binding | 86%
Cc1[nH]nc2c1N=C(c1ccccc1Cl)c1cnc(N3CCOCC3)cc1N2 | enzyme activity, inhibitor | 0.5 µM |  | inhibition | 0.5%
C=CC(=O)N1CCc2ccc(-n3c(=O)ccc4cnc5ccc(-c6cnn(C)c6)cc5c43)cc21 | KINOMEscan | 1 µM | reference: DMSO control | remaining binding | 100%
CN1CC[C@@H](COc2cnc(C#N)cc2-c2ccn3nc(NC(=O)C4CC4)cc3c2)C1 | enzyme activity, inhibitor | 1 µM |  | inhibition | 5%
CNC1C[S+]2CC[S+]3CC[S+](C1)[Ru-4]321([N]=C=S)[n]2c3ccc(OC)cc3c3c4c(c5cc(F)c[n+]1c5c32)C(=O)NC4=O (centres unmarked) | KinomeScan | 0.1 µM | reference: untreated | remaining binding | 88%
C=CC(=O)Nc1cccc(-c2cnc3[nH]cc(C(=O)NC(C)(C)C)c3n2)c1 | kinase activity | 0.1 µM |  | inhibition | 41%
NC(=O)[C@@H](O)C[C@H]1CCc2sc3ncnc(O[C@H]4CC[C@H](N5CCOCC5)CC4)c3c21 | enzyme activity, inhibitor | 10 µM |  | inhibition | 12%
COc1cc(Nc2nccc(-c3cnn4nc(OC)ccc34)n2)cc(C(F)(F)F)c1 | binding, competition with immobilised ligand | 1 µM |  | remaining binding | 92%
C=CC(=O)N1CCCC(n2c(=O)c3ncccc3n(Cc3ccc(Oc4ccccc4)cc3)c2=O)C1 (centres unmarked) | cell-free assay, competition with immobilised ligand | 1 µM |  | remaining binding | 80%
CC1CCN(c2ccc(-c3n[nH]c(=O)c4ncccc34)cc2)CC1 | cell-free assay, competition with immobilised ligand | 10 µM |  | remaining binding | 27%
Cc1cccc(-c2ccc3nc(NC(=O)C4CCCO4)nn3c2)c1 (centres unmarked) | enzyme activity, Dundee kinase panel | 10 µM |  | remaining activity | 95%
Cc1cccc(O[C@H]2CCC[C@@H](C(C)CNCc3ccncc3)C2)c1 (relative stereo) | enzyme activity, inhibitor | 10 µM |  | inhibition | 13%
C=CC(=O)N1Cc2nc(-c3cc(-c4cc(Cl)cnc4Cl)c(F)cc3F)n(-c3ccncn3)c2C1 | cell-free assay, inhibitor | 1 µM |  | inhibition | -1.5%
Cc1c[nH]c2nccc(-c3ccc(C(=O)N[C@@H]4c5c(F)cc(C(F)F)cc5C[C@@H]4O)cn3)c12 | binding, competition with immobilised ligand | 3 µM |  | remaining binding | 0.2%
Cc1cccc(-c2ccc3nc(NC(=O)C4CCCCC4)nn3c2)c1 | enzyme activity, Dundee kinase panel | 10 µM |  | remaining activity | 98%
CNC(=O)C1CCN(c2cc(C)c(F)cc2NC(=O)c2ccc(-c3cc(O)ccc3C)c(C)c2)CC1 | binding, competition with immobilised ligand | 1 µM |  | remaining binding | 100%
